# Results gathered from unrelated publications.
# Numbered parts are unrelated; each lists some results of a single study. Substitutions count along the parent as printed.

# Study 1 — technique: universal PBM; molecule type: double-stranded DNA, one strand shown; matrix: in vitro; tested at: 600 nM; reading: higher = stronger binding
# Target: Sal-like protein 4, full length isoform A (SALL4, Homo sapiens, UniProt Q9UJQ4, residues 1-1053)
# UniProt Q9UJQ4, sequence (whole entry, looked up): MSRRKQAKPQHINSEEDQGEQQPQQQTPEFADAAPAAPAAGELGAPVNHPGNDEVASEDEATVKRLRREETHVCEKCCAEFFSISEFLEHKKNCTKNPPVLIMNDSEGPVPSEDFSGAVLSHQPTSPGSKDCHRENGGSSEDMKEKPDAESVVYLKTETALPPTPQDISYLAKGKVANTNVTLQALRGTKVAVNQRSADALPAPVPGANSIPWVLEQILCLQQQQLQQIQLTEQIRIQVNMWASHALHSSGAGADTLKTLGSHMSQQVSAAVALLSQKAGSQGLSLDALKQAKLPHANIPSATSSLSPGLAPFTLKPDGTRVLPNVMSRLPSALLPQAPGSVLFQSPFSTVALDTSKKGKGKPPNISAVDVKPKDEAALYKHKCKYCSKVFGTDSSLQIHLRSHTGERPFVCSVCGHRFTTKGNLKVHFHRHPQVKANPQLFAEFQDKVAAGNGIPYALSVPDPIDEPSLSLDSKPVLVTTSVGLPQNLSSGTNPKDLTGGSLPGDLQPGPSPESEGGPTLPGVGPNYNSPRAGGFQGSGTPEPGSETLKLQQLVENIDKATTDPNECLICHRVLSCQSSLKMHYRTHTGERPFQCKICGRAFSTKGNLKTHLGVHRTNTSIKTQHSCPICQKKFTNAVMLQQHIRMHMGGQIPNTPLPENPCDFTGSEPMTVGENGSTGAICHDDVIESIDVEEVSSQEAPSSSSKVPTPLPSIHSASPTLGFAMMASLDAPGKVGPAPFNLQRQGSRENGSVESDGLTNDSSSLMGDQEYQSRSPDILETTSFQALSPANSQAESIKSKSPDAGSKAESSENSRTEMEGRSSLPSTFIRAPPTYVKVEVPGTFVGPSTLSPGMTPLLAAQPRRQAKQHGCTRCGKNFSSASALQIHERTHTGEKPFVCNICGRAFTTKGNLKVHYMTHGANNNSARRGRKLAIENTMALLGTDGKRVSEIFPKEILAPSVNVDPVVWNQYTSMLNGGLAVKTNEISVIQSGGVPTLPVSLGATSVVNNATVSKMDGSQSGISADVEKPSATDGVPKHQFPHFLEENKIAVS
# Setting: 8-mer, flanks averaged, mean of replicates
Oligonucleotide,E-score
ATAAAGCG,0.287
ATCGCGCC,-0.196
CGTGCCAA,-0.233
AACGGCAC,-0.202
CGGGTACA,-0.241
GCTCTTTA,-0.13
TGAATTAA,0.312
CCCTTATC,-0.0332
CGTTCCGA,-0.187
AATGCGAA,0.204
GATCTGAA,-0.0671
ACTGCGCC,-0.367
CTCACGTC,-0.127
AGGGTCTC,-0.225
CCGAGGAG,-0.215
AGTCGTCG,-0.208
CGCGACCA,-0.216
GGTCCCGA,-0.35
TGCCGACA,-0.0976
GCCACTCA,-0.148
AATTGACG,0.0989
CCAACGGA,-0.224
CCCCCTAC,-0.278

# Study 2 — technique: RNA Bind-n-Seq; molecule type: RNA; matrix: in vitro; tested at: 365 nM; baseline: no-protein control; reading: higher = stronger binding
# Target: RNA binding protein fox-1 homolog 2, RRM domain, GST-SBP tag (RBFOX2, Homo sapiens, UniProt O43251-10, residues 100-194)
# Setting: natural RNA segment, single round, ends assumed
# Shared flanks, not repeated: GGGAGUUCUACAGUCCGACGAUC … UGGAAUUCUCGGGUGCCAA
# Residues (chain): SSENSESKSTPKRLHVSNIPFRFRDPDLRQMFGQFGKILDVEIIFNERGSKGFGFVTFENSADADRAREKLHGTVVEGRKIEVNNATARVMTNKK
Oligonucleotide,RBNS enrichment (R)
AGCCCAUCCAUCUCUUGGUUGCUAGUGAUUUUCAUAGAGUAGAUUGACUAGUAAGGUGUUGUAAGUGAUAAGAUCAAUAUCCCUAUGGCUGCUUCCUUGAUCACAGUUUC,0.309
CCACAGUGCUGAGGAAAUCAUAGUGGCAGAAGGAGGAGGUGACUGGUUACAUCCCGUCCAGUCAGGAAGGAAAAGAAAAGGAAAAGUGCCUCGCUGGCUUCCUCCUUUUC,0.441
GCCCAUAUCCAAUUCGAAUUUCAGAAAUUUCUCUGUUUGCUUUAAAUAACUCUUUACAAAUAAGGGUCGGGCACGGUGGCUCACGCCUGUAAUCCCAGCUCUUUGGGAGG,0.574
AGGUCACCCUUGCACGGGUUUGGCCAACACCAUGAAGGAGUUGCCUUGGAGUUUCACCUGCAUAGCUUGCAUCAGCCCCGAGAGGGCAAAGGAGGGUCAGCCUUCCACUU,0.354
UUGACCUGAUGAGGGACAGAGCUUGGUUGGAUGACCCGGGAGAAGUCAGGGCAGGGCUCCAGGGGAUAACAGGUGUCCUGCUUCUCCUUUGGCAAUGCAAAAUGACUCCU,0.795
GAGGCAGGUGGAUUUCUAAGUUCGAGGCCAGCCUGGUCUACAGAGUGAGUUCCAGGACAGCCAGGGCUACACAGAGAAACCCUGUCUCAAAAAAAAAAAAGAAAGAAAGA,0.284
CCUGGGAUGCAGAGGAGGGGGAUCACUGCAAGACCACCCUGGUUGCUCUCCAUAUGAGCUCCAGGCCAGCUUGGGUUACAUAAGGAAACCCUGUCUUGAGAAAAACCAAU,0.901
ACAGAAUAAGCCAGAUCCUUGACUCUCAAGCCCCCAGUUUUUAAAAACAAGGUGUUCCUUGAUUUAUAAUCCUUCUUGUUUAUGCUGUGUUCUUUGAUUUAUAAUCCUUG,0.435

# Study 3 — target: CCNB1, cyclin fold, Cln2 fusion (human); technique: yeast growth competition, sequencing; matrix: yeast; setting: strong parent motif; baseline: not given; reading: higher = stronger binding
# Parent: PKN2 docking peptide (human); VSAVQKLDFSDTM
Substitution,normalised enrichment score
F9P,-0.127
L7G,-0.413
D11R,0.61
K6N,0.969
A3L,1.68
S2W,1.84
F9D,0.312
T12W,2.45
V4A,0.535
S2I,1.35
V4H,-0.0481
S10W,1.18
M13F,1.54
D11W,1.27
V1W,2.7
T12M,1.61
M13C,2.48
V1P,2.41

# Study 4 — technique: protein binding microarray; molecule type: double-stranded DNA, one strand shown; matrix: in vitro; tested at: not given; baseline: not given; reading: higher = stronger binding
# Target: Histone acetyltransferase KAT6A, winged helix 1, GST fusion (KAT6A, Homo sapiens, UniProt Q92794, residues 1-85)
# Setting: 8-mer, flanks averaged, mean of 2 arrays, mostly near background
# Construct (chain): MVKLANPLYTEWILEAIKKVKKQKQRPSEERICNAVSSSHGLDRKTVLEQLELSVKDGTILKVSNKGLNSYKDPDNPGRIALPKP
Oligonucleotide,E-score
CCCTCCCG,0.16
AAGGGATC,-0.0174
ATATTTGA,-0.081
AAGGGACC,-0.00525
AGCCATAC,-0.0764
GATAAAAC,0.0523
AAAACCCT,-0.119
CGTAGTGA,-0.0163
AGAACTAT,-0.0569
CAGTCGCG,0.249
CTACATGA,-0.163
AACCCGAG,0.194
GGCTGCCA,0.0137
ACTCTGGC,-0.115

# Study 5 — technique: DHFR PCA, deep sequencing; matrix: yeast; added: (+)-ABA 1.4 µM; baseline: wild-type fitted maximum; reading: higher = stronger binding
# Target: ABI1, truncated, D143A, DHFR fusion (Arabidopsis thaliana)
# Setting: methotrexate growth selection, single substitutions
# Parent: PYL1, truncated, DHFR fusion (Arabidopsis thaliana); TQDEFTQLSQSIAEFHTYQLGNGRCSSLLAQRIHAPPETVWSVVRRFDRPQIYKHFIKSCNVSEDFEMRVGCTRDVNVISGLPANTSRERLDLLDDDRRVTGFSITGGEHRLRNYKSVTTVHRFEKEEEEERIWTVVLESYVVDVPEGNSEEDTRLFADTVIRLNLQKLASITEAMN
Substitution,relative binding score [%]
E130W,19.4
N85A,71.2
V76K,2.95
G108N,-10
M68C,36.9
A158P,-20.9
F103I,6.58
F157A,3.17
L93V,68.7
E151S,45.8
V44A,7.98
V100C,27.7
Q7K,57.4
R98L,44.3
C60P,-7.07
V161T,11.4

# Repeated from above (study 4):
Oligonucleotide,E-score
ATATTTGA,-0.081
AAGGGACC,-0.00525
AGCCATAC,-0.0764
GATAAAAC,0.0523
AAAACCCT,-0.119
CGTAGTGA,-0.0163
AGAACTAT,-0.0569
CAGTCGCG,0.249
CTACATGA,-0.163
AACCCGAG,0.194
